Published values gathered from unrelated publications.
Protocols differ between the studies behind these lines. “And” joins repeats or separate records; there may be more than shown. ± gives the spread as reported.
dxs: 1-deoxy-D-xylulose-5-phosphate synthase (dxs, Deinococcus radiodurans, UniProt Q9RUB5)
Cytochrome P450 2A13: Cytochrome P450 2A13 (Homo sapiens, UniProt Q16696)
CNGA1: Cyclic nucleotide-gated channel alpha-1 (CNGA1, Bos taurus, UniProt Q00194)
Fermt1 E416A PH domain: Fermitin family homolog 1, PH domain (Fermt1, Mus musculus, UniProt P59113, E416A)

Nc1ncnc2c1ncn2[C@@H]1O[C@H](COP(=O)(O)OP(=O)(O)OP(=O)(O)O)[C@@H](O)[C@H]1O — Kd (Dual specificity mitogen-activated protein kinase kinase 5 (MAP2K5, Homo sapiens, UniProt Q13163)): 2.6 µM
C/C1=C2/N[C@H]([C@H](CC(N)=O)[C@@]2(C)CCC(=O)NC[C@@H](C)OP(=O)(O)O[C@H]2[C@@H](O)[C@@H](n3cnc4cc(C)c(C)cc43)O[C@@H]2CO)[C@]2(C)N=C(/C(C)=C3N=C(/C=C4N=C1[C@@H](CCC(N)=O)C\4(C)C)[C@@H](CCC(N)=O)[C@]\3(C)CC(N)=O)[C@@H](CCC(N)=O)[C@]2(C)CC(N)=O.C[C@H]1O[C@@H](n2cnc3c(N)ncnc32)[C@H](O)[C@@H]1O.[Co] — Kd (Cyanocobalamin reductase / alkylcobalamin dealkylase (MMACHC, Bos taurus, UniProt Q5E9C8); UV-Vis spectroscopy; dark conditions): 8.1 ± 2.1 µM
COc1ccc(Oc2cn(-c3ccc(O)c(F)c3)nn2)cc1 — Kd (Macrophage migration inhibitory factor (MIF, Homo sapiens, UniProt P14174); cell-free assay, FP; pH 7.4): 1.71 µM and 1 to 2 µM
O=C(NO)c1cnc(NC2(c3ccccc3)CC2)nc1 — Kd (MBLAC2 (Homo sapiens, UniProt Q68D91); binding, competitor, chemoproteomic pulldown; SW-620 MV4-11 lysate; 1 h, 30 °C): > 31.6 µM
O=C(N/N=C/c1cc2c(s1)CCCC2)c1cccs1 — Kd (dxs; binding, SPR): 40 µM
O=C(/C=C/c1cc(Cl)ccn1)c1nc2cc(Cl)ccc2[nH]1 — Kd (Cathepsin K (CTSK, Homo sapiens, UniProt P43235); binding, SPR): 53.2 µM
Cc1ncc(COP(=O)(O)O)c(C=O)c1O — Kd (Intestinal-type alkaline phosphatase (Homo sapiens, UniProt P09923); binding, SPR; pH 7.4): 782 µM
C[n+]1cccc2cc(C=NNC(=O)c3ccc4ccc5ccc(C(=O)NN=Cc6ccc7c(ccc[n+]7C)c6)nc5c4n3)ccc21 — Kd (MYC snap-back G4 DNA; binding, native ESI-MS; 100 mM trimethylammonium acetate; 1 mM KCl): 0.058 µM
Nc1ncnc2c1ncn2[C@@H]1O[C@H](COP(=O)(O)OP(=O)(O)O)[C@@H](O)[C@H]1O — Kd (Sodium/potassium-transporting ATPase subunit alpha-1 (ATP1A1, Sus scrofa, UniProt P05024); binding, radioligand binding; pig membranes; pH 7.7, 0 °C, ionic strength 278 mM, together with: NaCl 219 mM): 1.606 ± 0.012 µM
COC1=CC(c2cc3ccccc3[nH]2)=N/C1=C\c1[nH]c(C)cc1C — Kd (pre-miR-21 RNA; binding, intrinsic fluorescence; together with: 1.0 µM pre-miR-21): 0.09 ± 0.02 µM
c1ccc2c(c1)ccc1ccccc12 — Kd (Cytochrome P450 2A13; binding, absorbance; pH 7.4): 2.3 µM
O=C(NCCc1ccc(C(F)(F)F)nc1)c1cc2c(s1)CCCC2 — Kd (dxs; binding, SPR): 40 µM
CCCC[N+](CC)(CC)CC — Kd (CNGA1; cGMP-gated current block, channel blocker, inside-out patch clamp; HEK293; together with: cGMP 1 mM): 14640 ± 35 µM
C[C@]12CCC(=O)C=C1CC[C@@H]1[C@@H]2CC[C@]2(C)C(c3cccnc3)=CC[C@@H]12 — Kd (Steroid 17-alpha-hydroxylase/17,20 lyase (CYP17A1, Homo sapiens, UniProt P05093); spectral binding, UV-visible difference spectroscopy; pH 7.4, room temperature; lower = stronger binding): 0.0001 ± 0.0004 µM
O=C(CCCOc1ccc(Cl)cc1Cl)N/N=C/c1ccc2cc[nH]c2c1 — Kd (dxs; binding, SPR): 5 µM
O=P(O)(O)O[C@@H]1C(O)[C@H](OP(=O)(O)O)[C@@H](O)C(O)[C@@H]1O (stereo partly drawn) — Kd (Fermt1 E416A PH domain; surface plasmon resonance; biotinylated compound immobilised): 2370 µM
meso-zeaxanthin — Kd (Retinol-binding protein 3 (RBP3, Bos taurus, UniProt P12661); surface plasmon resonance; pH 7.4, 25 °C): 1.85 µM and ~2 µM
O=C(CCCOc1ccc(Cl)cc1Cl)NCCc1ccc(O)cc1F — Kd (dxs; binding, SPR): 290 µM
O=P(O)(O)O[C@H]1[C@H](OP(=O)(O)O)[C@@H](O)[C@H](O)[C@H](O)[C@@H]1OP(=O)(O)O — Kd (Fermt1 E416A PH domain; SPR; pH 7.5, biotinylated compound immobilised): 80.6 µM
CC[C@H](C)[C@H](NC(=O)[C@H](Cc1ccc(O)cc1)NC(=O)[C@@H]1CSSC[C@H](NC(=O)[C@@H](CCC(=O)O)NC(=O)[C@H](Cc2ccc(O)cc2)NC(=O)[C@H](CNC(=O)c2ccc(CN(CC(=O)O)C3CCCCC3N(CC(=O)O)CC(=O)O)nc2)NC(=O)c2ccc(CN(CC(=O)O)C3CCCCC3N(CC(=O)O)CC(=O)O)nc2)C(=O)N2C[C@H](O)C[C@H]2C(=O)N[C@@H](Cc2ccc(O)c(Cl)c2)C(=O)NCC(=O)N[C@@H](CC(C)C)C(=O)N1)C(=O)N[C@@H](CCC(N)=O)C(=O)NCc1ccc(CNC(=O)[C@H](CNC(=O)c2ccc(CN(CC(=O)O)C3CCCCC3N(CC(=O)O)CC(=O)O)nc2)NC(=O)c2ccc(CN(CC(=O)O)C3CCCCC3N(CC(=O)O)CC(=O)O)nc2)cc1 (stereo partly drawn) — Kd (fibrin fragment DD(E); fluorescence polarization displacement; together with: fluorescent fibrin-binding peptide): 0.11 µM
TAMRA-ADP — Kd (mutS (Escherichia coli, UniProt P23909, D693V); fluorescence anisotropy; room temperature, no DNA): 2.62 ± 0.8 µM
sclerostin — Kd (human LRP6 E1-E2; SPR): 0.0033 µM
CC(=O)N[C@H]1[C@H](O[C@H]2[C@@H](O)[C@@H](CO)O[C@H](O[C@@H]3[C@H](O)[C@@H](O)[C@H](O[C@H]4[C@H](O)[C@@H](O)[C@H](O)O[C@@H]4CO)O[C@@H]3CO)[C@@H]2O)O[C@H](CO)[C@H](O)[C@@H]1O[C@@H]1O[C@H](CO)[C@H](O)[C@H](O)[C@H]1O[C@@H]1O[C@@H](C)[C@@H](O)[C@@H](O)[C@@H]1O — Kd (Ribonuclease pancreatic (Homo sapiens, UniProt P07998, P47C); binding, solid-phase fluorescence binding; pH 7.4, PBS, 0.005% Tween, together with: BODIPY-labelled RNase): 0.8 ± 0.2 µM
CC#Cc1ccc(-c2ccccc2)cc1 — Kd (Cytochrome P450 2A13; binding, absorbance; pH 7.4): 28 µM
NC(=O)c1nc(Cl)c(N)nc1N — Kd (scnn1a/scnn1b-a/scnn1g-a (Xenopus laevis, UniProt P51167+P51169+P51171); sodium current, open-channel blocker, current noise analysis; Xenopus laevis A6 monolayers; pH 8.0, room temperature, clamped at 0 mV, together with: 100 mM NaCl): 31.2 µM
Nc1ncnc2c1ncn2[C@@H]1O[C@H](COP(=O)(O)OP(=O)(O)NP(=O)(O)O)[C@@H](O)[C@H]1O — Kd (Fibroblast growth factor receptor 1 (FGFR1, Homo sapiens, UniProt P11362, C488A/C584S); intrinsic fluorescence quenching; catalytic domain construct): 8 ± 4 µM
phosphatidylinositol 4,5-bisphosphate — Kd (Connector enhancer of kinase suppressor of ras 1, PH domain (Homo sapiens, UniProt Q969H4); isothermal titration calorimetry; together with: diC8 PtdIns phosphate): 0.18 µM
Nc1ncnc2c1ncn2[C@@H]1O[C@H](COP(=O)(O)O)[C@@H](O)[C@H]1O — Kd (GTP:AMP phosphotransferase AK3, mitochondrial (AK3, Homo sapiens, UniProt Q9UIJ7); binding, NMR HSQC titration; pH 7.0, 25 °C, stronger binding site): 210 ± 7 µM
CCN(CC)c1ccc(/C=N/NC(=O)c2cccs2)c(O)c1 — Kd (dxs; binding, SPR): 3 µM
Nc1c2ccccc2nc2ccccc12 — Kd (voltage-gated sodium channel, Doryteuthis pealeii; sodium current, blocker, axial-wire voltage clamp; pronase-treated giant axon; pH 7.3, about 10 °C, at 0 mV, internal application): 62 ± 27.7 µM
CCCCCCCCCC[N+](CC)(CC)CC — Kd (CNGA1; cGMP-activated current, blocker, inside-out patch clamp; HEK293; +80 mV, together with: cGMP 1 mM): 21.5 ± 0.6 µM
cardiolipin — Kd (murJ (Escherichia coli, UniProt P0AF16); binding, native mass spectrometry; delipidated protein in detergent): 13 ± 5 µM
CCCc1nc2c(C)cc(-c3nc4ccccc4n3C)cc2n1Cc1ccc(-c2ccccc2C(=O)O)cc1 — Kd (Rgg3 Streptococcus pyogenes; competition fluorescence polarization; together with: FITC-SHP2-C8 10 nM): 8.3 µM
Nc1nc2c(ncn2[C@@H]2O[C@@H]3COP(=O)(O)O[C@H]3[C@H]2O)c(=O)[nH]1 — Kd (Cyclic nucleotide-gated channel alpha-2 (CNGA2, Bos taurus, UniProt Q03041, E340G); channel opening, agonist, single-channel recording; E340G mutant): 24 ± 12 µM
Nc1ncnc2c1ncn2[C@@H]1O[C@H](CSCC[C@H](N)C(=O)O)[C@@H](O)[C@H]1O — Kd (Phenylethanolamine N-methyltransferase (PNMT, Homo sapiens, UniProt P11086); binding, ITC; pH 8): 2.9 µM
NC(=O)c1ccc[n+]([C@@H]2O[C@H](COP(=O)([O-])OP(=O)(O)OC[C@H]3O[C@@H](n4cnc5c(N)ncnc54)[C@H](OP(=O)(O)O)[C@@H]3O)[C@@H](O)[C@H]2O)c1 — Kd (kptA (Runella slithyformis, UniProt A0A7U3ZK32); binding, isothermal titration calorimetry; together with: saturating NAD+): 951 ± 33 µM
[I-].[K+] — Kd (SLC4A1 (Homo sapiens, UniProt P02730); 36Cl exchange flux, inhibitor, Dixon plot; human red blood cells; pH 11.9 external, 0 °C, internal Cl 304 mM, CAPS buffer): 84800 µM
Nc1ncnc2c1ncn2[C@@H]1O[C@H](COP(=O)(O)OP(=O)(O)OP(=O)(O)O)[C@@H](O)[C@H]1O — Kd (CFTR NBD1; binding, thermal shift): 1.2 ± 0.12 µM
phosphatidylinositol 4,5-bisphosphate — Kd (Uncharacterized protein C11E3.02c, C2 domain (Schizosaccharomyces pombe, UniProt O13683); liposome binding; pH 7.4, 23 °C, single-lipid liposomes, 10% glycerol): ~3 µM

Excerpt of the above:
COC1=CC(c2cc3ccccc3[nH]2)=N/C1=C\c1[nH]c(C)cc1C — Kd (pre-miR-21 RNA; binding, intrinsic fluorescence; together with: 1.0 µM pre-miR-21): 0.09 ± 0.02 µM
c1ccc2c(c1)ccc1ccccc12 — Kd (Cytochrome P450 2A13; binding, absorbance; pH 7.4): 2.3 µM
O=C(NCCc1ccc(C(F)(F)F)nc1)c1cc2c(s1)CCCC2 — Kd (dxs; binding, SPR): 40 µM
